Measured values collected from several papers.
Compare with care: the assays were run in different laboratories. Several values in a cell are separate wells, animals, samples, runs or records. Numbers after ± are the reported error.

With `COc1ccccc1-c1n[nH]c2nc(NC3CCN(C(=O)Cc4ccc(F)cc4F)CC3)ncc12` the relative abundance was 1.29 (bead binding, competition bead pull-down, refers to: LINJ.31.0710; Leishmania donovani axenic amastigote extract; 10 µM; reference: vehicle).
`CC1(C)C(NC(=O)C(=NOC2(C(=O)O)CC2)c2csc(N)n2)C(=O)N1OS(=O)(=O)O` (stereo not shown) has an MIC of 0.125 µg/mL (Shigella flexneri; agar dilution; ATCC 12022, susceptible).
With `CC[C@@H]1CN2CCc3c([nH]c4cccc(OC)c34)[C@@H]2C[C@@H]1/C(=C\OC)C(=O)OC` the IC50 was 0.8 µg/mL and 0.93 µg/mL (rabbit anti-mitragynine polyclonal IgG; antigen binding, competitor, competitive indirect ELISA; 10% methanol; 90 min both antibody incubations).
For `CCc1nc2cc(Br)ccn2c1C(=O)NCc1ccc2oc(-c3ccc(Cl)cc3)nc2c1`, the MIC90 was greater than 100 µM (Mycolicibacterium smegmatis).
The IC50 of `CN1C(=O)C(C2C3=C(CCCC3=O)Oc3ccc(Br)cc32)C(=O)N(C)C1=O` (stereo not shown) is reported as greater than 100 µg/mL (3T3-L1 pre-adipocytes; cell viability, MTT; 72 h).
`O=C(O)c1ccc(-c2nc(-c3ccccc3Cl)c3sccn23)cc1` — result for “CFU-GEMM colony count”: 34 and 43 (CD34+ hematopoietic stem cells, human; 0.1 mM).
`COc1ccccc1NC(=O)OC1C(C)C(OC)C=COC2(C)Oc3c(C)c(O)c4c(c3C2=O)C2=NC3(CCN(CC(C)C)CC3)NC2=C(NC(=O)C(C)=CC=CC(C)C(O)C(C)C(O)C1C)C4=O` (stereo not shown) gave an MIC of 0.015 µM (Mycobacteroides abscessus; broth microdilution; ATCC 19977).
`[2H]C([2H])([18F])[C@]([2H])(N)C(=O)O` — result for “maximum cellular uptake”: 14.4 ± 0.6 %ID/100 µg protein (U-87 MG tumour model; host not given; 5 min).
With `CC(C)CC(C(=O)N1CC2(CC1C#N)C(=O)Nc1ccccc12)N(C)C(=O)c1cc2c(F)cc(F)c(F)c2[nH]1` (stereo not shown) the inhibition was 90.3% (Human coronavirus 229E; cytopathic effect; MRC5; 10 µM).
`Cc1cc(C(=O)Nc2nc3cccc(C)c3n2[C@H]2CCCCN(C(=O)/C=C/CN(C)C)C2)ccn1` — result for “EC50 fold shift”: 0.68 fold and 0.6 fold (Trypanosoma brucei; cell growth, Alamar Blue; 2T1 overexpressing Tb927.6.4970; reference: parental 2T1).
`CC(C)(C)C(=O)OCOP(=O)(OCOC(=O)C(C)(C)C)C1CCCN(O)C1=O` (stereo not shown) gave a TGI of 6.63 µM (HOP-62).
For `CCN(CC)C(=O)[C@@H]1C=C2c3cccc4c3c(cn4C(=O)c3ccco3)C[C@H]2N(C)C1`, “time to peak head-twitch response” read 5 to 10 min (magnetometer detection; mouse C57BL/6J male; intraperitoneal, dose not given, maximally active doses, 5 min blocks).
`CCc1nc2ccc(Cl)cn2c1C(=O)NC/C=C(\C)CC/C=C(\C)CCC=C(C)C` gave an MIC of greater than 100 µM (Mycolicibacterium smegmatis; 72 h).
With `CSc1cc(C)[nH]c(=O)c1CNC(=O)c1c(C)n([C@H](C)C2CCN(CC(F)(F)F)CC2)c2ccccc12` the GI50 was 0.041 µM (KARPAS-422; cell growth or viability; 8 days).
`COc1ccccc1-c1n[nH]c2nc(N[C@H]3CC[C@H](NS(=O)(=O)CC(C)C)CC3)ncc12` has a relative abundance of 0.53 (bead binding, competition bead pull-down, refers to: LINJ.34.1770; Leishmania donovani extract; 10 µM; reference: vehicle).
`O=C1NC2(CC2)COc2ncc(F)cc2[C@H]2COCCN2c2ccn3ncc1c3n2` — result for “organ-to-body weight ratio”: 0.728 ± 0.077% (Sprague-Dawley rat, female, kidneys; oral, 20 mg/kg/day, 4 weeks dosing, end of recovery).
For `Cc1cc(Oc2nc(N3CC[C@@H](c4ccncc4)C3)ncc2F)[nH]n1`, the normalised growth was 100% and 98% (Mycobacterium tuberculosis; OD; H37Rv PurF CRISPRi knockdown; 3.1e-05 µM, added: anhydrotetracycline low).
`CC[C@H](C)[C@H](NC(=O)[C@H](CC(C)C)NC(=O)[C@H](CC(C)C)NC(=O)[C@H](CC(=O)O)NC(=O)[C@@H](NC(=O)[C@H](CCC(=O)O)NC(=O)[C@H](CCCCN)NC(=O)[C@H](Cc1ccc(O)cc1)NC(=O)[C@H](CCCCN)NC(=O)[C@H](Cc1c[nH]cn1)NC(=O)CNC(=O)CN)[C@@H](C)O)C(=O)N[C@@H](CC(C)C)C(=O)N[C@@H](Cc1ccccc1)C(=O)N[C@@H](CCCCN)C(=O)N[C@@H](CC(=O)O)C(=O)N[C@@H](CC(=O)O)C(=O)N[C@@H](Cc1ccc(O)cc1)C(=O)N[C@@H](Cc1ccccc1)C(=O)N[C@@H](C)C(=O)N[C@@H](CCCCN)C(=O)N[C@@H](CCCCN)C(=O)N[C@@H](CC(N)=O)C(=O)N[C@@H](CCC(=O)O)C(=O)N[C@@H](CCC(=O)O)C(=O)N[C@@H](CCCNC(=N)N)C(=O)N[C@@H](CCCCN)C(N)=O` — result for “initial cleavage rate”: 2.8 ± 2.5 %/min (HCV IRES RNA; MALDI-TOF mass spectrometry, refers to: 5'-phosphate products; hepatitis C virus).
The K1 change of `NC[C@]1(CC(=O)O)CC[C@H]([18F])CC1` is reported as -35% (PET; rhesus monkey, whole brain; dose not given, added: gabapentin pre-injection; reference: baseline).
`Cc1nc2cc(Br)ccn2c1C(=O)NCc1ccc2oc(-c3ccc(OC(F)(F)F)cc3)nc2c1` gave an MIC90 of greater than 100 µM (Mycolicibacterium smegmatis).
`CCc1nn(C)c2nc(-c3ccc(C(=O)O)cc3)nc(NCc3ccccc3)c12` has a parasite number of 109% and 101% and 93.3% and 96.8% (Cryptosporidium parvum; HCT-8; EC50, 0 h; reference: DMSO control).
With `Cc1ccc(OCCN(C)C)cc1C(=O)N[C@H](C)c1cc(-c2cnn(C3CNC3)c2)nc2ccccc12` the viability was 99.6% and 101% (Vero E6; 125 µM).
`CC(C)C[C@@H]1NC(=O)[C@H](CC(=O)O)NC(=O)CNC(=O)[C@H](CCCNC(=N)N)NC(=O)[C@H](Cc2ccccc2)NC(=O)[C@H](CCCCNC(=O)CCc2cn(CCCNC(=O)CN3CCN(CC(=O)O)CCN(CC(=O)O)CCN(CC(=O)O)CC3)nn2)N(C)C(=O)[C@H]2CCCN2C(=O)[C@H](Cc2ccccc2)NC(=O)[C@H](C)NC1=O` has a tissue-to-tissue ratio of 1.3 ± 0.8 (female CB17 SCID mice, tumour and lung; intravenous, dose not given, 90 min, 177Lu-labelled; reference: tumour over lung).
The colony survival of `COc1ccccc1-c1ccncc1C(=O)Nc1nnc(OCc2ccc(Cl)cc2)s1` is reported as 99.3% (HCT-116 BRCA2 wild-type; 0.06 µM; reference: untreated).
The viability of `Cc1ccc(OCCN(C)C)cc1C(=O)N[C@H](C)c1cc(-c2ccc(C(F)(F)F)s2)nc2ccccc12` is reported as 118% and 107% (Vero E6; 3.906 µM).
With `NCCCO.O=C(O)C(Cl)Cl` the inhibition was 0% (Amaranthus retroflexus; herbicidal activity; 15 mg/mL, 21 days, pre-emergence greenhouse).
With `CC(C)C[C@@H]1NC(=O)CNC(=O)[C@H](Cc2c[nH]cn2)NC(=O)[C@H](C)NC(=O)[C@H](CO)NC(=O)[C@H](CCC(N)=O)NC(=O)[C@@H](NC(=O)CN)CSSC[C@@H]2NC(=O)CNC(=O)[C@H](C)NC(=O)[C@H](CC(C)C)NC(=O)[C@@H]3CSSC[C@@H](C(=O)NCC(=O)O)NC(=O)[C@H](Cc4ccccc4)NC(=O)CNC(=O)[C@H](CC(N)=O)NC(=O)[C@@H]4CCCN4C(=O)CNC(=O)[C@H](CSSC[C@H](NC(=O)[C@H](CCCNC(=N)N)NC(=O)[C@H](CC(N)=O)NC(=O)[C@H](Cc4c[nH]cn4)NC(=O)[C@H](CCCCN)NC1=O)C(=O)N[C@@H](CCCCN)C(=O)N[C@@H](CCC(N)=O)C(=O)N[C@@H](CC(=O)O)C(=O)N[C@@H](CO)C(=O)N[C@@H](CC(=O)O)C(=O)N3)NC(=O)[C@H](C(C)C)NC2=O` the IC50 was greater than 100 µM (HEK293, Wnt1-transfected; Wnt signalling).
`C[C@@H](O)[C@@H]1NC(=O)[C@@H](NC(=O)CCOCCOCCOCCOCCNC(=O)c2ccc(NN)nc2)CSSC[C@@H](C(=O)O)NC(=O)[C@H](Cc2c[nH]cn2)NC(=O)[C@H](CO)NC(=O)[C@H](Cc2ccccc2)NC(=O)[C@@H]2CCCN2C(=O)[C@H](CO)NC(=O)[C@@H]2CCCN2C1=O` [technetium-99m labelled] gave a tissue uptake of 0.02 ± 0.01 %ID/g (mouse HCT-116 xenograft, muscle; intravenous, 37 MBq, postmortem after imaging).

A few entries again:
`Cc1cc(C(=O)Nc2nc3cccc(C)c3n2[C@H]2CCCCN(C(=O)/C=C/CN(C)C)C2)ccn1` — result for “EC50 fold shift”: 0.68 fold and 0.6 fold (Trypanosoma brucei; cell growth, Alamar Blue; 2T1 overexpressing Tb927.6.4970; reference: parental 2T1).
`CC1(C)C(NC(=O)C(=NOC2(C(=O)O)CC2)c2csc(N)n2)C(=O)N1OS(=O)(=O)O` (stereo not shown) has an MIC of 0.125 µg/mL (Shigella flexneri; agar dilution; ATCC 12022, susceptible).
`C[C@@H](O)[C@@H]1NC(=O)[C@@H](NC(=O)CCOCCOCCOCCOCCNC(=O)c2ccc(NN)nc2)CSSC[C@@H](C(=O)O)NC(=O)[C@H](Cc2c[nH]cn2)NC(=O)[C@H](CO)NC(=O)[C@H](Cc2ccccc2)NC(=O)[C@@H]2CCCN2C(=O)[C@H](CO)NC(=O)[C@@H]2CCCN2C1=O` [technetium-99m labelled] gave a tissue uptake of 0.02 ± 0.01 %ID/g (mouse HCT-116 xenograft, muscle; intravenous, 37 MBq, postmortem after imaging).
`[2H]C([2H])([18F])[C@]([2H])(N)C(=O)O` — result for “maximum cellular uptake”: 14.4 ± 0.6 %ID/100 µg protein (U-87 MG tumour model; host not given; 5 min).
The colony survival of `COc1ccccc1-c1ccncc1C(=O)Nc1nnc(OCc2ccc(Cl)cc2)s1` is reported as 99.3% (HCT-116 BRCA2 wild-type; 0.06 µM; reference: untreated).
